Measurements gathered from unrelated publications.
Compare with care: the assays were run in different laboratories. Several values in a cell are separate wells, animals, samples, runs or records. ± gives the spread as reported.
FLT1: Vascular endothelial growth factor receptor 1 (FLT1, Homo sapiens, UniProt P17948)
Chain of UniProt P17948 (whole entry, looked up): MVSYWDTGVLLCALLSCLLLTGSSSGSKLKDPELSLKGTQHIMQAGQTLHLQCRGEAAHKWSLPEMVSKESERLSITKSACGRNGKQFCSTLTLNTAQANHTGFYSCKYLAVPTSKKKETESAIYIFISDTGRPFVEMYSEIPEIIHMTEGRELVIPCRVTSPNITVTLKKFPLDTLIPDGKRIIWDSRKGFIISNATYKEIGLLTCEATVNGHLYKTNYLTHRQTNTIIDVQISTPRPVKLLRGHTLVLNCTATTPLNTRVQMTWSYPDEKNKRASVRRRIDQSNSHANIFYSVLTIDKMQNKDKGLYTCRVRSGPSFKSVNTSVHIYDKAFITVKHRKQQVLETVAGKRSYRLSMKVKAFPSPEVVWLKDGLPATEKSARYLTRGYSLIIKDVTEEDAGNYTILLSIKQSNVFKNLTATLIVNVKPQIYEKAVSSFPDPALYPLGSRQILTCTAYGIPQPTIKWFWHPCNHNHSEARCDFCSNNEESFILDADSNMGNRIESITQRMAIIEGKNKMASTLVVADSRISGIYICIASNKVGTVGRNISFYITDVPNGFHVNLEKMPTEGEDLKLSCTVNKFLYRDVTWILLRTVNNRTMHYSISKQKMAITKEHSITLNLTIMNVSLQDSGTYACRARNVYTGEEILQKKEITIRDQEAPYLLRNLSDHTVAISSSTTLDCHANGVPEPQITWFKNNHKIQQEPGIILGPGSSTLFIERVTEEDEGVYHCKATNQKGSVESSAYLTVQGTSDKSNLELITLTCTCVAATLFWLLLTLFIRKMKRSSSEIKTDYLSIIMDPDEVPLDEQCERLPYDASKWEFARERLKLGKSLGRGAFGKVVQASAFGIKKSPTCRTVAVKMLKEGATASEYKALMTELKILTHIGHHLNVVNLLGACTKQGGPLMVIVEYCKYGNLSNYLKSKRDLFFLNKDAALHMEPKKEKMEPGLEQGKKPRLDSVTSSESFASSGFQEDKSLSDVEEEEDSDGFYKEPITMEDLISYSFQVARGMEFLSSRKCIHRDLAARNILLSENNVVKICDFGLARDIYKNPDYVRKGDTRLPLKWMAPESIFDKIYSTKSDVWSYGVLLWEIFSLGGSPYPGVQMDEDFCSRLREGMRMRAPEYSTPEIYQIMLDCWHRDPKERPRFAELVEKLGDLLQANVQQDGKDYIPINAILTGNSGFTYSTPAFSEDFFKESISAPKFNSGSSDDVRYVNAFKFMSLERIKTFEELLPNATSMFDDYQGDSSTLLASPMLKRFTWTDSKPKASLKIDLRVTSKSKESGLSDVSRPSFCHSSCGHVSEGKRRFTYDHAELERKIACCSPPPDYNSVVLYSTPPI
CSK: Tyrosine-protein kinase CSK (CSK, Homo sapiens, UniProt P41240)
Chain of UniProt P41240 (whole entry, looked up): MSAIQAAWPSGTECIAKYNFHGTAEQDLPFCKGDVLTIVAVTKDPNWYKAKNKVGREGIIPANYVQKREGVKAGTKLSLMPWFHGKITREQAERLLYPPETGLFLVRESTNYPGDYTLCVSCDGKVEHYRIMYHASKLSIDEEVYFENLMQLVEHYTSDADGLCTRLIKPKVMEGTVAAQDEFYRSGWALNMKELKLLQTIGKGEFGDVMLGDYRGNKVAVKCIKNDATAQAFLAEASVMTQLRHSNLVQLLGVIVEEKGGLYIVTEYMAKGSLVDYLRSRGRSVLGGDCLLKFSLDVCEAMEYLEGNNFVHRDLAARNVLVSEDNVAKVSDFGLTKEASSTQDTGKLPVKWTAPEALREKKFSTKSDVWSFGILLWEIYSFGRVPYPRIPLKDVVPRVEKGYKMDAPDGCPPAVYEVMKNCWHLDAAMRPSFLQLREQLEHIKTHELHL
EIF2AK3: Eukaryotic translation initiation factor 2-alpha kinase 3 (EIF2AK3, Homo sapiens, UniProt Q9NZJ5)
Chain of UniProt Q9NZJ5 (whole entry, looked up): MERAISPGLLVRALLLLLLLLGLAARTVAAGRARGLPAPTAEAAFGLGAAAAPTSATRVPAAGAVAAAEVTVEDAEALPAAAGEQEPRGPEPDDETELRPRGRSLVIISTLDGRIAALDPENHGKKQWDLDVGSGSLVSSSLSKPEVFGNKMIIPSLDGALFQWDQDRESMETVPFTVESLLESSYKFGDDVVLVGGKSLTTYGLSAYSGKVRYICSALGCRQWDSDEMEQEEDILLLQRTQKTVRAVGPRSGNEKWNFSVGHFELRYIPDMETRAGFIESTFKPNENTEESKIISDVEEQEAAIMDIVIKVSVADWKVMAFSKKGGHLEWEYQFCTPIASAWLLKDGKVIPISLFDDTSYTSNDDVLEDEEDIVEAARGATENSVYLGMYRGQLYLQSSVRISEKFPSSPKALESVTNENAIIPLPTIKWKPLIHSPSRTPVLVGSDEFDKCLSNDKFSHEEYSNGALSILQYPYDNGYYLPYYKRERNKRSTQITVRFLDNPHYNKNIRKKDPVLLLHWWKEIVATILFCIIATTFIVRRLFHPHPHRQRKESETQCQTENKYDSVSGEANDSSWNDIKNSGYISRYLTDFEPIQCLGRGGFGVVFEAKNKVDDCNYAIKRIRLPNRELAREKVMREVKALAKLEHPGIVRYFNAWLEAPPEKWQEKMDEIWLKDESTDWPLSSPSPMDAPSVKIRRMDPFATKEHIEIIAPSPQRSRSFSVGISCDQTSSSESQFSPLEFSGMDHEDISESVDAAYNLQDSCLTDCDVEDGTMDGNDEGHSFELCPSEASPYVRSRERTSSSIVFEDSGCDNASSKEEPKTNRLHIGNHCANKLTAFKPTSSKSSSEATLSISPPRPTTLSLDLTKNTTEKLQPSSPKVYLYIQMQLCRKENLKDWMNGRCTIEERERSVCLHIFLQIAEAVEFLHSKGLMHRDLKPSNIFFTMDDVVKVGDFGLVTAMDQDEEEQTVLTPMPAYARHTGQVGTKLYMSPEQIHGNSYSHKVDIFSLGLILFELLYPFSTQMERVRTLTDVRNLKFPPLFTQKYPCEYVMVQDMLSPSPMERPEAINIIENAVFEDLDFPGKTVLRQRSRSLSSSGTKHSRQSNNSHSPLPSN
EPHB6: Ephrin type-B receptor 6 (EPHB6, Homo sapiens, UniProt O15197)
Chain of UniProt P07202 (whole entry, looked up): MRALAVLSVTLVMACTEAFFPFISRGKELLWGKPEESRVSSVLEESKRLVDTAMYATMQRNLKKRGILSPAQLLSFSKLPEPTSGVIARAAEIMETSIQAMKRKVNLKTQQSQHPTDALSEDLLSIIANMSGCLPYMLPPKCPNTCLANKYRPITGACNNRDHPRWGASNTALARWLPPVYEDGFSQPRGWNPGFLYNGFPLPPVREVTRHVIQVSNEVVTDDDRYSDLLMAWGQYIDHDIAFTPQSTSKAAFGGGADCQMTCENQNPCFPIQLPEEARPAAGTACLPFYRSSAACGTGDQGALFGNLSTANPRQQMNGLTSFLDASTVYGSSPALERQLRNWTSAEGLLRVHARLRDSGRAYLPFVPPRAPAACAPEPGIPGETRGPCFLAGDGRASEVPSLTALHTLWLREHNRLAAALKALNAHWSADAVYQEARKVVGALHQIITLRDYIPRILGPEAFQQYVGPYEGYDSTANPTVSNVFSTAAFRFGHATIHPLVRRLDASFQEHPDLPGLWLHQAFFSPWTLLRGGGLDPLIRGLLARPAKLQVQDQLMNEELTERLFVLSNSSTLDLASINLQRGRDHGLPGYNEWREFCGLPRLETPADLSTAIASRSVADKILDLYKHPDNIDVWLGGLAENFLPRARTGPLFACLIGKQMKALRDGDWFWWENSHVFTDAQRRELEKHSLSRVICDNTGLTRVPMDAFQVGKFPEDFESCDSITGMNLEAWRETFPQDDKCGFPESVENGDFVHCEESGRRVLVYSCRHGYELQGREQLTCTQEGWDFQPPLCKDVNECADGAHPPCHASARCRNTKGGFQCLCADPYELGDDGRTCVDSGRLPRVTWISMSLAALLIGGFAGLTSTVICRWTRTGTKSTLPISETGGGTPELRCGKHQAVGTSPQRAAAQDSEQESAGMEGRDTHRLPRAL
Chain of UniProt O15197 (whole entry, looked up): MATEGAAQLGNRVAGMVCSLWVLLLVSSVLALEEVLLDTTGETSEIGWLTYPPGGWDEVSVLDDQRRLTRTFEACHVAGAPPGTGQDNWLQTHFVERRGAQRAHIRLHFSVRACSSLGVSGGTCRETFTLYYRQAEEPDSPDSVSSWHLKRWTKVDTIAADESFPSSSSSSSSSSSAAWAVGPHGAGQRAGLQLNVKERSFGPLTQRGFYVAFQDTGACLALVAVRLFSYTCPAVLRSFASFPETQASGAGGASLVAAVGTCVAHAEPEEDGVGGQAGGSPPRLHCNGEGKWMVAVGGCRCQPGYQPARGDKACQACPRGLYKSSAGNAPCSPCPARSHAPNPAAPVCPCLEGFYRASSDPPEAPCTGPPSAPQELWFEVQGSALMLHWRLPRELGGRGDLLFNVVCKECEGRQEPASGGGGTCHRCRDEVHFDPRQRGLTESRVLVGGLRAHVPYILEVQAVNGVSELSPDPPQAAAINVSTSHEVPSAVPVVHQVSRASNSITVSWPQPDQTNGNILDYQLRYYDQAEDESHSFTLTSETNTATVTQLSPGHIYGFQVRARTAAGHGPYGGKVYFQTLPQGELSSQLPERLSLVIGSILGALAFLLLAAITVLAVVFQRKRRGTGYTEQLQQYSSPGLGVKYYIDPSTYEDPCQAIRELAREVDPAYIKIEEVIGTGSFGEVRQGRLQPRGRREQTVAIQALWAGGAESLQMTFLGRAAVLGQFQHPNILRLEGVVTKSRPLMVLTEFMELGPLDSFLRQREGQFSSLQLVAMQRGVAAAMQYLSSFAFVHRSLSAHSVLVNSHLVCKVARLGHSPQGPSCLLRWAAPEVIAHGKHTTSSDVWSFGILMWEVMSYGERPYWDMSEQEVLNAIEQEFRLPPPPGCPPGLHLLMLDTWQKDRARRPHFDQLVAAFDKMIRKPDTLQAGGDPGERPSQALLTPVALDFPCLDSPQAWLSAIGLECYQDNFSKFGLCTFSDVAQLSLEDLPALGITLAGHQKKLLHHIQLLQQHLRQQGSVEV
Chain of UniProt P30043 (whole entry, looked up): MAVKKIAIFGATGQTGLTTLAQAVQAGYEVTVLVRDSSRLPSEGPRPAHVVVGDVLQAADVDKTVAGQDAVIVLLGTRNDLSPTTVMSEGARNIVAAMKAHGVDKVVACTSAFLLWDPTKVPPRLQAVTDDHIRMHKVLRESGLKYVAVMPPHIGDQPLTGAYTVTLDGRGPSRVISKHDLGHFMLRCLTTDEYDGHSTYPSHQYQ

| Structure (SMILES) | target | assay | system | setting | how to read | remaining activity |
| --- | --- | --- | --- | --- | --- | --- |
| Cc1cc(Nc2cc(N3CCN(C)CC3)nc(Sc3ccc(NC(=O)C4CC4)cc3)n2)[nH]n1 | Macrophage colony-stimulating factor 1 receptor (CSF1R, Homo sapiens, UniProt P07333) | kinase activity, KinaseProfiler |  | 0.03 µM, species human | reference: control | 87% |
| COc1cc(N2CCN(C)CC2)ccc1Nc1nc(N)n(C(=S)NCc2c(Cl)cccc2Cl)n1 | Interleukin-1 receptor-associated kinase 1 (IRAK1, Homo sapiens, UniProt P51617) | enzyme activity |  | 10 µM | reference: control | 0.2% |
| C=CC(=O)N1CCC[C@@H](n2nc(-c3ccc(Oc4ccccc4)cc3)c3c(N)ncnc32)C1 | FLT1 |  |  | 1 µM |  | 42% |
| C=CC(=O)N1CCC([C@@H]2CCNc3c(C(N)=O)c(-c4ccc(Oc5ccccc5)cc4)nn32)CC1 | CSK | kinase activity, inhibitor, HotSpot radiometric |  | 100 nM, added: ATP 10 µM |  | 88.9 ± 0.4% |
| CNCC(=O)O | Sodium- and chloride-dependent glycine transporter 2 (Homo sapiens, UniProt Q9Y345) | glycine uptake, inhibitor, [3H]glycine uptake |  | 3000 µM, log concentration 3, added: [3H]glycine | reference: no inhibitor | 99.1% |
| O=C1NC(=O)/C(=C/c2ccc(-c3ccc(F)cc3O)o2)S1 | Dual specificity tyrosine-phosphorylation-regulated kinase 1A (DYRK1A, Homo sapiens, UniProt Q13627) | enzyme activity |  | 10 µM |  | 3% |
| COc1cc(-c2cncc3c2CN(C)Cc2cc(N4CCNCC4)ccc2-3)cc(OC)c1OC | EIF2AK3 | kinase activity |  | 1 µM, human enzyme, added: ATP 10 µM | reference: DMSO control | 109% |
| Cc1ccc(NC(=O)c2ccc(C)c(C(F)(F)F)c2)cc1C#Cc1nn(C2CCC(O)CC2)c2ncnc(N)c12 (centres unmarked) | Phosphatidylinositol 4,5-bisphosphate 3-kinase catalytic subunit alpha isoform, with p85 alpha (Pik3ca, Mus musculus, UniProt P42337) | enzyme activity, inhibitor |  | 10 µM, p110a/p85a)(m mouse, added: ATP 10 µM |  | 90% |
| CN(C)CC#Cc1ccc2[nH]c3c(c2c1)-c1nc(N)ncc1CCC3 | Serine/threonine-protein kinase PAK 6 (PAK6, Homo sapiens, UniProt Q9NQU5) | kinase activity, inhibitor, radiometric |  | 1 µM, added: ATP at Km |  | 77% |
| COc1cc(Nc2ncc3c(n2)-c2ccc(Cl)cc2C(c2c(F)cccc2OC)=NC3)ccc1C(=O)O | TEK | kinase activity |  | 1 µM |  | 20% |
| COc1cc(N2CCN(C)CC2)ccc1Nc1nc(N)n(C(=O)NCc2c(Cl)cccc2Cl)n1 | EPHB6 | enzyme activity |  | 10 µM | reference: control | 0% |
| O=C(c1ccc(F)cc1)C1CCN(CCn2c(=O)[nH]c3ccccc3c2=O)CC1 | Diacylglycerol kinase beta (Dgkb, Rattus norvegicus, UniProt P49621) | enzyme activity, DAG kinase | HEK293T lysate overexpressing | 50 µM, unit not given, added: [γ32P]-ATP | reference: DMSO vehicle | 1.08 |
| COc1ccc(F)cc1C(=O)NCc1ccc(-c2nn([C@@H](C)C(F)(F)F)c(N)c2C(N)=O)cc1 | CSK | kinase activity, inhibitor, HotSpot radiometric |  | 100 nM, added: ATP 10 µM |  | 79.7 ± 0.9% |
| O=C(NC1CCC1)c1ccc2nc(-c3cccc(NS(=O)(=O)NCCN4CCCCC4)c3)cn2c1 | Mast/stem cell growth factor receptor Kit (KIT, Homo sapiens, UniProt P10721, V559D/V654A) | enzyme activity |  | 10 µM |  | 88% |
| Nc1ncc2c(n1)-c1c([nH]c3ccc(-c4ccc(F)cc4)cc13)CCC2 | Tau-tubulin kinase 1 (TTBK1, Homo sapiens, UniProt Q5TCY1) | kinase activity, inhibitor, radiometric |  | 1 µM, added: ATP at Km |  | 97% |
| CNc1ncc2c(/C=C/C(=O)N3CCC(OC)CC3)nn(Cc3cccc(C(F)(F)F)c3)c2n1 | EIF2AK3 | kinase activity, inhibitor |  | 1 µM | reference: untreated control | 99% |
| Nc1nc(NC2CCCCC2)sc1C(=O)c1ccccc1 | AMP-activated protein kinase | enzyme activity, inhibitor |  | 10 µM |  | 96% |
| C=CC(=O)N1CCC[C@@H](n2nc(-c3ccc(Oc4ccccc4)cc3)c3c(N)ncnc32)C1 | CSK | kinase activity, inhibitor, HotSpot radiometric |  | 100 nM, added: ATP 10 µM |  | 14.2 ± 0.1% |
| Cc1cc(NC(=O)c2cccc(NC(=O)/C=C/CN(C)C)c2)ccc1Nc1nccc(-c2cccnc2)n1 | Mitogen-activated protein kinase 8 (MAPK8, Homo sapiens, UniProt P45983) | enzyme activity, inhibitor |  | 4.938 µM, 6 h, unit not given, added: GSH 10 mM pre-incubation | reference: vehicle | 0.255 |
| c1cnc2ccc(Nc3nc(NC4CC4)c4nc[nH]c4n3)cc2c1 | FLT1 | kinase activity, inhibitor, SelectScreen kinase profiling |  | 1 µM | reference: control | 101% |
| NC/C(=C\F)COc1cccc(Cn2c(=S)[nH]c(=O)c3[nH]cnc32)c1 | Thyroid peroxidase (Homo sapiens, UniProt P07202) | ascorbate oxidation |  | 1.875 µM | reference: control | 31% and 102% and 71.4% |
| O=C(O)c1ccc(Nc2ncc3c(n2)-c2ccc(Cl)cc2C(c2c(F)cccc2F)=NC3)cc1 | Arg(m) | kinase activity |  | 1 µM |  | 63% |
| Nc1ncnc2c1cnn2C1CCCCC1 | Inositol-tetrakisphosphate 1-kinase (Homo sapiens, UniProt Q13572) | enzyme activity, inhibitor, radiometric kinase |  | 10 µM, added: ATP 1 mM | reference: control | ~100% |
| COc1cc(F)ccc1-c1ncnc(Nc2cccc(C[S@](C)(=N)=O)c2)n1 | Serine/threonine-protein kinase Nek2 (NEK2, Homo sapiens, UniProt P51955) | kinase activity |  | 10 µM, added: 10 µM ATP |  | 84% |
| CCOc1cc(N2CCN(C)CC2)ccc1Nc1nc(N)n(C(=O)NCc2ccccc2S(=O)(=O)C(C)C)n1 | EPHB6 | enzyme activity |  | 10 µM | reference: control | 1.8% |
| O=C(O)c1cccc(-c2noc(-c3ccccc3F)n2)c1 | Flavin reductase (NADPH) (BLVRB, Homo sapiens, UniProt P30043) | enzyme activity, inhibitor |  | 0.25 µM |  | 60% |

Excerpt of the above:
| Structure (SMILES) | target | assay | system | setting | how to read | remaining activity |
| --- | --- | --- | --- | --- | --- | --- |
| O=C(O)c1ccc(Nc2ncc3c(n2)-c2ccc(Cl)cc2C(c2c(F)cccc2F)=NC3)cc1 | Arg(m) | kinase activity |  | 1 µM |  | 63% |
| O=C1NC(=O)/C(=C/c2ccc(-c3ccc(F)cc3O)o2)S1 | Dual specificity tyrosine-phosphorylation-regulated kinase 1A (DYRK1A, Homo sapiens, UniProt Q13627) | enzyme activity |  | 10 µM |  | 3% |
